# Measured values of several laboratories.
# Each line is one published result; not all experiments were run side by side. Values joined by “and” are separate records of one study, mostly repeats; a detail may differ. ± marks the error that the study gave.
Compound,assay,test system,conditions,how to read,quantity,result
CNC(=O)c1ccc(-c2cnn3ccc(C(=O)N(C)c4ccc(Cl)c(C(=O)OC)c4)cc23)cc1,,"female C57BL/6 mouse, plasma","oral, 10 mg/kg",,AUC,0.019 µM·h
ClC=C(Cl)Cl,,"human, exhaled alveolar breath","inhalation, 100 ppmv for 4 h",,A2 coefficient,2.86 µg/L and 4.68 µg/L
[18F]CCCOc1ccccc1OC(c1ccccc1)C1CNCCO1 (centres unmarked),,1-octanol/phosphate buffer,pH 7.4,,log P,2 to 2.47
NC(=O)c1nc(F)c[nH]c1=O,UV-Vis spectrophotometry,supercritical CO2,"120 min, 308 K, 24 MPa, 895.54 kg/m^3",,solubility,1100 µg/mL
CC(=O)N[C@H](CCCCNC(=O)C(C)F)C(=O)N[C@@H](CS)C(=O)N[C@@H](CS)C(=O)N[C@@H](CCC(=O)O)C(=O)N[C@@H](Cc1c[nH]cn1)C(=O)N[C@H](Cc1ccccc1)C(=O)N[C@@H](CCCNC(=N)N)C(=O)N[C@@H](Cc1c[nH]c2ccccc12)C(=O)N[C@@H](CS)C(=O)N[C@@H](CCCNC(=N)N)C(=O)N1CCC[C@H]1C(=O)N[C@H](C(N)=O)C(C)C (some centres unmarked) [fluorine-18 labelled],,"C57BL/6 mice, male, B16-F10 tumour, intestine","intravenous, 1 h",,tissue uptake,0.99 ± 0.45 %ID/g
CS(=O)(=O)CCCn1c(Cn2c(=O)n(CC(F)(F)F)c3ccncc32)cc2cc(Cl)ccc21,,RSV-infected infants,"concentration not given, mid-high dose cohort",,patients with high aPTT,25%
[123I]c1cncc(OC[C@@H]2CCN2)c1,SPECT,"human, high plasma nicotine, cortex","intravenous, dose not given",relative to: plasma,tissue/plasma ratio,13
CSCC[C@@H]1NC(=O)[C@H](CC(=O)O)NC(=O)CNC(=O)[C@H](CCCNC(=N)N)NC(=O)[C@H](C)NC(=O)[C@H](CCC(=O)O)NC(=O)[C@H](CCCNC(=N)N)NC(=O)[C@@H]2CSSC[C@@H]3NC(=O)[C@H](CO)NC(=O)[C@H]([C@@H](C)O)NC(=O)[C@@H]4CCCN4C(=O)[C@H](C)NC(=O)[C@H](Cc4c[nH]c5ccccc45)NC(=O)[C@H](CC(=O)O)NC(=O)CNC(=O)[C@H](CCCNC(=N)N)NC(=O)CNC(=O)[C@H](CCC(N)=O)NC(=O)[C@@H]4CCCN4C(=O)[C@@H](NC(=O)CNC(=O)C(C)F)CSSC[C@H](NC(=O)CNC(=O)[C@H](C)NC(=O)[C@H](CC(C)C)NC(=O)[C@H](CSSC[C@@H](C(=O)NCC(N)=O)NC(=O)[C@H]([C@@H](C)O)NC(=O)[C@H](CCCNC(=N)N)NC(=O)[C@@H]4CCCN4C1=O)NC(=O)[C@H](CC(=O)O)NC(=O)[C@H](CO)NC(=O)[C@H](CC(=O)O)NC(=O)[C@H](CCC(N)=O)NC(=O)[C@H](CO)NC3=O)C(=O)N[C@@H](C(C)C)C(=O)N2 (some centres unmarked) [fluorine-18 labelled],,"nude mice U-87 MG xenograft, skin","intravenous, 0.5 h",,tissue uptake,1.3 ± 0.08 %ID/g
CCNc1nc(Cl)nc(NC(C)C)n1,LC-MS/MS,herbicide solution,"2 h, 4 °C, together with: 254 nm UV exposure",,remaining amount,34.9 ± 6.06%
CC(C)C[C@H](NC(=O)[C@H](CC(=O)O)NC(=O)CNC(=O)[C@H](CCCNC(=N)N)NC(=O)[C@H](CC(C)C)NC(=O)[C@H](CC(N)=O)NC(=O)[C@@H]1CCCN1C(=O)[C@@H](NC(=O)[C@H](C)NC(=O)[C@H](CC(N)=O)NC(=O)CCOCCOCCOCCOCCOCCOCCOCCOCCOCCOCCOCCOCCOCCOCCOCCOCCOCCOCCOCCOCCOCCOCCOCCOCCOCCOCCOCCOCCNC(=O)CN1CCN(CC(=O)O)CCN(CC(=O)O)CC1)C(C)C)C(=O)N[C@@H](CCC(N)=O)C(=O)N[C@H](C(=O)N[C@@H](CC(C)C)C(=O)N[C@@H](C)C(=O)N[C@@H](CCC(N)=O)C(=O)N[C@@H](CCCNC(=N)N)C(=O)N[C@H](C(=O)N[C@@H](C)C(=O)N[C@@H](CCCNC(=N)N)C(=O)N[C@H](C(=O)NCCOCCOCCOCCOCCOCCOCCOCCOCCOCCOCCOCCOCCOCCOCCOCCOCCOCCOCCOCCOCCOCCOCCOCCOCCOCCOCCOCCOCCC(N)=O)[C@@H](C)O)C(C)C)C(C)C [fluorine-18 labelled],,"female athymic nude mice, DX3puroβ6/DX3puro xenografts, muscle","intravenous, 0.175 nmol",,tissue uptake,≤ 0.9 %ID/g
CC[C@H](C)[C@H](NC(=O)[C@@H](N)CCCNC(=N)N)C(=O)N[C@H](C(=O)N1CCC[C@H]1C(=O)N[C@@H](C)C(N)=O)C(C)C,,"CD-1 mouse, female, plasma","intravenous, 20 mg/kg daily, day 14, infused over 1 min",,Tmax,0.05 h
Nc1nc(N)nc(N)n1,,"CD IGS rat, female, non-pregnant, serum","oral, 1000 mg/kg/day, 10 days, with rectangular renal crystals",,serum concentration,> 73 µg/mL
Cc1cc(C(C#N)c2ccc(Cl)cc2)c(Cl)cc1NC(=O)c1cc(I)cc(I)c1O (centres unmarked),,"parasitized Corriedale lambs, plasma","subcutaneous, 5 mg/kg",,Cmax,119 ± 24.9 µg/mL
CCCCCCCCCC[N+](C)(C)C,ultrafiltration,human serum,,,unbound fraction in blood,0.122
N#Cc1ccc(N2N=C3c4ccc(C(=O)N5CCC(O)CC5)nc4CC[C@@H]3[C@@H]2C2CCCC2)cc1Cl,,human,"dose not given, together with: itraconazole",relative to: without itraconazole,AUC(0-inf) increase,104%
CCCCCOc1ccc(-c2cc(-c3ccc(C(=O)N[C@H]4C[C@@H](O)[C@@H](O)NC(=O)[C@@H]5[C@@H](O)[C@@H](C)CN5C(=O)[C@H]([C@H](O)CC(N)=O)NC(=O)[C@H]([C@H](O)[C@@H](O)c5ccc(O)c(OS(=O)(=O)O)c5)NC(=O)[C@@H]5C[C@@H](O)CN5C(=O)[C@H]([C@@H](C)O)NC4=O)cc3)no2)cc1,,"preterm neonates ≥1000 g, plasma","intravenous, 15 mg/kg/day, repeated dosing, mean",,Vdss,1.8 L
C=C(C)[C@@H]1CC[C@]2(NCCN3CCS(=O)(=O)CC3)CC[C@]3(C)[C@H](CC[C@@H]4[C@@]5(C)CC=C(C6=CC[C@@](CF)(C(=O)O)CC6)C(C)(C)[C@@H]5CC[C@]43C)[C@@H]12,,"human, serum","50 mg multiple dose, day 16",,peak ALT,83 IU/L
O[C@H]1CCCN[C@@H]1CCCn1cnc2c(Cl)c(Cl)ccc21,,"human, plasma","oral, 100 mg single dose, capsule, geometric mean",,half-life,6.91 h
CC[C@H](C)[C@H](NC(=O)[C@H](CO)NC(=O)[C@H](C)NC(=O)[C@@H](NC(=O)CNC(=O)[C@H](CO)NC(=O)[C@@H](NC(=O)[C@@H](NC(=O)[C@H](Cc1c[nH]cn1)NC(=O)[C@@H]1CCCN1C(=O)[C@@H](NC(=O)[C@H](CC(C)C)NC(=O)[C@H](CO)NC(=O)[C@H](CC(C)C)NC(=O)[C@@H](N)Cc1ccccc1)[C@@H](C)CC)[C@@H](C)CC)C(C)C)C(C)C)C(=O)N[C@@H](C)C(=O)N[C@@H](CCCCN)C(=O)N[C@@H](Cc1c[nH]cn1)C(=O)N[C@@H](Cc1ccccc1)C(N)=O,UPLC-MS/MS,processed rat plasma in autosampler,"1.6 µg/mL, 8 h, 25 °C, post-preparative stability",,concentration found,1.53 µg/mL
CC1(C)S[C@@H]2[C@H](NC(=O)[C@H](C(=O)O)c3ccsc3)C(=O)N2[C@H]1C(=O)O,,rat plasma,"30 ng/mL, three freeze-thaw cycles",relative to: nominal concentration,relative error,-2%
O=C(CC(=O)c1ccccc1)c1ccccc1,,"Sprague-Dawley rat, male, plasma","oral, 50 mg/kg, regular emulsion",,Tmax,2 h
CN[C@@](C)(C[18F])C(=O)O,,"SCID mouse U87 xenograft, muscle","30 min, post injection",,tissue uptake,1.8 ± 0.3 %ID/g
CCCCCCCCCCCCCCCCCC(=O)N[C@H](C(=O)N[C@H](C(=O)N[C@@H](CCCNC(=N)N)C(=O)N[C@@H](CCCNC(=N)N)C(=O)N[C@@H](C)C(=O)N[C@@H](CC(=O)O)C(=O)N[C@@H](CCCNC(=N)N)C(=O)N[C@@H](C)C(=O)N[C@@H](C)C(=O)N[C@H](C(=O)N1CCC[C@H]1C(=O)NCC(=O)NCC(=O)NCC(=O)NCC(=O)N[C@@H](CCCNC(=N)N)C(=O)NCC(=O)N[C@@H](CC(=O)O)C(=O)O)C(C)C)C(C)C)[C@@H](C)CC,ELISA,"Sprague Dawley rat male, blood","intravenous, 2.415 mg/kg",,volume of distribution,2.66 ± 0.23 L/kg

# Repeated from above:
Compound,assay,test system,conditions,how to read,quantity,result
O[C@H]1CCCN[C@@H]1CCCn1cnc2c(Cl)c(Cl)ccc21,,"human, plasma","oral, 100 mg single dose, capsule, geometric mean",,half-life,6.91 h
CC(=O)N[C@H](CCCCNC(=O)C(C)F)C(=O)N[C@@H](CS)C(=O)N[C@@H](CS)C(=O)N[C@@H](CCC(=O)O)C(=O)N[C@@H](Cc1c[nH]cn1)C(=O)N[C@H](Cc1ccccc1)C(=O)N[C@@H](CCCNC(=N)N)C(=O)N[C@@H](Cc1c[nH]c2ccccc12)C(=O)N[C@@H](CS)C(=O)N[C@@H](CCCNC(=N)N)C(=O)N1CCC[C@H]1C(=O)N[C@H](C(N)=O)C(C)C (some centres unmarked) [fluorine-18 labelled],,"C57BL/6 mice, male, B16-F10 tumour, intestine","intravenous, 1 h",,tissue uptake,0.99 ± 0.45 %ID/g
CN[C@@](C)(C[18F])C(=O)O,,"SCID mouse U87 xenograft, muscle","30 min, post injection",,tissue uptake,1.8 ± 0.3 %ID/g
CCCCCCCCCC[N+](C)(C)C,ultrafiltration,human serum,,,unbound fraction in blood,0.122
